Assay results of several laboratories.
Lines come from different studies, so protocols differ.
Organism: Escherichia coli

Structure (SMILES) | assay | system | conditions | MIC
O=[N+]([O-])c1c(Br)c(Cl)c2cccnc2c1O | microbial growth, broth dilution | ATCC25922 | – | 2 µg/mL
CC[C@H]1OC(=O)[C@H](C)[C@@H](OC(=O)Cc2cccc([N+](=O)[O-])c2)[C@H](C)[C@@H](O[C@@H]2O[C@H](C)C[C@H](N(C)C)[C@H]2O)[C@](C)(OC)C[C@@H](C)C(=O)[C@H](C)[C@@H](O)[C@]1(C)O | – | tolC | – | 2 µg/mL
COc1cc(C(=O)O)ccc1NC(=O)c1ccc(NC(=O)c2ccc(NC(=O)[C@H](Cc3c[nH]nn3)NC(=O)c3ccc(NC(=O)/C(C)=C/c4ccc(O)cc4)cc3)cc2)cc1 | broth microdilution | ciprofloxacin-resistant | – | 0.5 µg/mL
CC1(C)[C@H](NC(=O)/C(=N\OCCN)c2csc(N)n2)C(=O)N1OS(=O)(=O)O | agar dilution | 16-1, ESBL-producing | – | 4 µg/mL
CN[C@H](CC(C)C)C(=O)N[C@H]1C(=O)N[C@@H](CC(N)=O)C(=O)N[C@H]2C(=O)N[C@H]3C(=O)N[C@H](C(=O)N[C@H](C(=O)O)c4cc(O)cc(O)c4-c4cc3ccc4O)[C@H](O)c3ccc(c(Cl)c3)Oc3cc2cc(c3O[C@@H]2O[C@H](CO)[C@@H](O)[C@H](O)[C@H]2O[C@H]2C[C@](C)(N)[C@H](O)[C@H](C)O2)Oc2ccc(cc2Cl)[C@H]1O | microbial growth, broth dilution | 25922 | – | 64 µM
NC[C@H]1O[C@H](O[C@H]2[C@H](O)[C@@H](O[C@H]3O[C@H](CO)[C@@H](O)[C@H](N)[C@H]3O)[C@H](N)C[C@@H]2N)[C@H](O)[C@@H](O)[C@@H]1O | – | 25922, Mueller-Hinton broth | 18 to 24 h, 37 °C | 4 µg/mL
CC[C@H]1OC(=O)[C@H](C)[C@@H](OC(=O)Cc2ccc([N+](=O)[O-])cc2)[C@H](C)[C@@H](O[C@@H]2O[C@H](C)C[C@H](N(C)C)[C@H]2O)[C@](C)(OC)C[C@@H](C)C(=O)[C@H](C)[C@@H](O)[C@]1(C)O | microbial growth | ATCC25922 | – | > 32 µg/mL
CC1(C)[C@H](NC(=O)/C(=N\OCCN)c2nsc(N)n2)C(=O)N1OS(=O)(=O)O | agar dilution | 16-1, ESBL-producing | – | 8 µg/mL
C#CCOc1ccc(CN[C@@]2(C)C[C@H](O[C@H]3[C@H](Oc4c5cc6cc4Oc4ccc(cc4Cl)[C@@H](O)[C@@H](NC(=O)[C@@H](CC(C)C)NC)C(=O)N[C@@H](CC(N)=O)C(=O)N[C@H]6C(=O)N[C@H]4C(=O)N[C@H](C(=O)N[C@H](C(=O)NCC(N)=O)c6cc(O)cc(O)c6-c6cc4ccc6O)[C@H](O)c4ccc(c(Cl)c4)O5)O[C@H](CO)[C@@H](O)[C@@H]3O)O[C@@H](C)[C@H]2O)cc1OC | broth microdilution | ATCC 25922 | 18 to 20 h | 64 µg/mL
CCC(CC)c1cc(CCN2CCCN(S(=O)(=O)c3ccc(F)cc3)CC2)nc(-c2ccccn2)n1 | microbial growth, broth dilution | ATCC25922 | – | > 64 µg/mL
CCCCCCCCCCCCCCCCCCn1cc(CN(CCC(=O)NCCN(CCC(=O)NCCN(CCC(=O)NCCN(C)C)CCC(=O)NCCN(C)C)CCC(=O)NCCN(CCC(=O)NCCN(C)C)CCC(=O)NCCN(C)C)CCC(=O)NCCN(CCC(=O)NCCN(CCC(=O)NCCN(C)C)CCC(=O)NCCN(C)C)CCC(=O)NCCN(CCC(=O)NCCN(C)C)CCC(=O)NCCN(C)C)nn1 | microbial growth, broth dilution | ATCC25922 | – | 6 µg/mL
CC[C@H]1OC(=O)[C@H](C)[C@@H](OC(=O)Cc2c(F)cccc2F)[C@H](C)[C@@H](O[C@@H]2O[C@H](C)C[C@H](N(C)C)[C@H]2O)[C@](C)(OC)C[C@@H](C)C(=O)[C@H](C)[C@@H](O)[C@]1(C)O | – | DSM 30083 | compound alone | 64 µM
CN[C@H](CC(C)C)C(=O)N[C@H]1C(=O)N[C@@H](CC(N)=O)C(=O)N[C@H]2C(=O)N[C@H]3C(=O)N[C@H](C(=O)N[C@H](C(=O)O)c4cc(O)cc(O)c4-c4cc3ccc4O)[C@H](O)c3ccc(c(Cl)c3)Oc3cc2cc(c3O[C@@H]2O[C@H](CO)[C@@H](O)[C@H](O)[C@H]2O[C@H]2C[C@](C)(NCc3ccc(OCc4cn(CC(=O)N[C@H](C(=O)N[C@@H](CCN)C(=O)N[C@H]5CCNC(=O)[C@H]([C@@H](C)O)NC(=O)[C@H](CCN)NC(=O)[C@H](CCN)NC(=O)[C@H](CC(C)C)NC(=O)[C@@H](CC(C)C)NC(=O)[C@H](CCN)NC5=O)[C@@H](C)O)nn4)c(OC)c3)[C@H](O)[C@H](C)O2)Oc2ccc(cc2Cl)[C@H]1O | broth microdilution | ATCC 35218, cation-adjusted Mueller-Hinton broth | 18 to 20 h, 37 °C, 0.002% polysorbate 80 | 16 µg/mL
C/C(=C\c1ccc(O)cc1)C(=O)Nc1ccc(C(=O)N[C@@H](Cc2c[nH]nn2)C(=O)Nc2ccc(C(=O)Nc3ccc(C(=O)Nc4ccc(C(=O)O)cc4)c(O)c3)cc2)cc1 | broth microdilution | BW25113 | – | 0.063 µg/mL
COc1ccc2ccc(O)c(/C=N/[C@H]3CCCC[C@H]3/N=C/c3cc(C)ccc3O)c2c1 | microbial growth, broth dilution | – | – | > 40 µM
COc1cc(C(=O)O)ccc1NC(=O)c1ccc(NC(=O)c2ccc(NC(=O)[C@H](Cc3c[nH]nn3)NC(=O)c3ccc(NC(=O)/C(C)=C/c4ccc(O)cc4)cc3)cc2)c(OC)c1 | broth microdilution | DSM 1116 | – | 1 µg/mL
Cn1nc(CCC(=O)O)c(=O)c2c(=O)[nH]c(N)nc21 | microbial growth, broth dilution | BW25113 | 18 h | > 100 µg/mL

Structure (SMILES) | assay | system | conditions | MIC
CN[C@H](CC(C)C)C(=O)N[C@H]1C(=O)N[C@@H](CC(N)=O)C(=O)N[C@H]2C(=O)N[C@H]3C(=O)N[C@H](C(=O)N[C@H](C(=O)NCc4cn(CCCCC(=O)N[C@H](C(=O)N[C@@H](CCN)C(=O)N[C@H]5CCNC(=O)[C@H]([C@@H](C)O)NC(=O)[C@H](CCN)NC(=O)[C@H](CCN)NC(=O)[C@H](CC(C)C)NC(=O)[C@@H](CC(C)C)NC(=O)[C@H](CCN)NC5=O)[C@@H](C)O)nn4)c4cc(O)cc(O)c4-c4cc3ccc4O)[C@H](O)c3ccc(c(Cl)c3)Oc3cc2cc(c3O[C@@H]2O[C@H](CO)[C@@H](O)[C@H](O)[C@H]2O[C@H]2C[C@](C)(N)[C@H](O)[C@H](C)O2)Oc2ccc(cc2Cl)[C@H]1O | broth microdilution | ATCC 25922 | 18 to 20 h | 16 µg/mL
CCCCCCCC[N+](C)(C)CCCCOc1cc(OCCCC[N+](C)(C)CCCCCCCC)cc(OCCCC[N+](C)(C)CCCCCCCC)c1.[Br-].[Br-].[Br-] | – | MC4100 | – | 2 µM
COc1nc(C(=O)O)ccc1NC(=O)c1ccc(NC(=O)c2ccc(NC(=O)[C@H](Cc3c[nH]nn3)NC(=O)c3ccc(NC(=O)/C(C)=C/c4ccc(O)cc4)cc3)cc2)c(OC)c1O | broth microdilution | ciprofloxacin-sensitive | – | 2 µg/mL
COc1c(NC(=O)c2ccc(NC(=O)c3ccc(NC(=O)[C@H](CC#N)NC(=O)c4ccc(NC(=O)/C(C)=C/c5ccc(O)cc5)cc4)cc3)c(OC)c2O)ccc(C(=O)O)c1O | microbial growth | DSM1116 | – | 0.1 µg/mL
COc1c(NC(=O)c2ccc(NC(=O)c3ccc(NC(=O)[C@H](Cc4c[nH]nn4)NC(=O)c4ccc(NC(=O)/C(C)=C/c5ccc(O)cc5)cc4)cc3)cc2O)ccc(C(=O)O)c1O | broth microdilution | ciprofloxacin-resistant | – | 0.5 µg/mL
CCCCCCCCCC[N+](C)(C)CCCCCCOc1cc(OCCCCCC[N+](C)(C)CCCCCCCCCC)cc(OCCCCCC[N+](C)(C)CCCCCCCCCC)c1.[Br-].[Br-].[Br-] | – | MC4100 | – | 2 µM
CC[C@H](C)[C@H](NC(=O)[C@@H](CCCNC(=N)N)NC(=O)[C@H](CCCNC(=N)N)NC(=O)[C@@H]1CCCN1C(=O)[C@@H]1CCCN1C(=O)[C@H](CCCNC(=N)N)NC(=O)[C@@H]1CCCN1C(=O)[C@H](CCCNC(=N)N)NC(=O)[C@@H]1CCCN1C(=O)[C@H](CCCNC(=N)N)NC(=O)[C@H](Cc1ccc(O)cc1)NC(=O)[C@@H]1CCCN1C(=O)[C@@H]1CCCN1C(=O)[C@H](CCCCN)NC(=O)[C@H](CC(=O)O)NC(=O)[C@@H](N)C(C)C)C(=O)N[C@@H](Cc1ccc(O)cc1)C(=O)N[C@@H](CC(N)=O)C(=O)N[C@H](CCCNC(=N)N)C(N)=O | broth microdilution | MC4100 | 18 h, 37 °C, 25% MHB2 | 8 µg/mL
C/C(=C\c1ccc(O)cc1)C(=O)Nc1ccc(C(=O)N[C@@H](Cc2c[nH]nn2)C(=O)Nc2ccc(C(=O)Nc3ccc(C(=O)Nc4ccc(C(=O)O)cc4)cc3)cc2)cc1 | broth microdilution | ciprofloxacin-sensitive | – | 0.063 µg/mL
CC[C@H]1OC(=O)[C@H](C)[C@@H](OC(=O)Cc2ccc3c(c2)OCO3)[C@H](C)[C@@H](O[C@@H]2O[C@H](C)C[C@H](N(C)C)[C@H]2O)[C@](C)(OC)C[C@@H](C)C(=O)[C@H](C)[C@@H](O)[C@]1(C)O | – | tolC | – | 2 µg/mL
CCCC(=O)Oc1c(C)c(OC)c2c(/C=C/c3ccccc3)c(CC)c(=O)oc2c1C | microbial growth, broth dilution | ATCC25922 | – | 5000 µg/mL
COc1ccc2ccc(O)c(/C=N/[C@H]3CCCC[C@H]3/N=C/c3cc(C(C)(C)C)cc(C(C)(C)C)c3O)c2c1 | microbial growth, broth dilution | – | clinical isolate | > 40 µM
Nc1nc2[nH]nc(CCC(=O)O)c(=O)c2c(=O)[nH]1 | microbial growth, broth dilution | BW25113 | 18 h | > 100 µg/mL
COc1cc(C(=O)Nc2ccc(C(=O)O)c(O)c2)ccc1NC(=O)c1ccc(NC(=O)[C@H](Cc2c[nH]nn2)NC(=O)c2ccc(NC(=O)/C(C)=C/c3ccc(O)cc3)cc2)cc1 | broth microdilution | BW25113 | – | 0.125 µg/mL
COC(C(N)=O)C(NC(=O)c1ccc(NC(=O)c2ccc(C#N)cc2)cc1)C(=O)Nc1ccc(C(=O)Nc2ccc(C(=O)Nc3ccc(C(=O)O)cc3)c(O)c2OC(C)C)cc1 (stereo not shown) | – | BW25113 wild type | – | 0.2 µg/mL
C[C@H](CS)C(=O)Nc1cccc(-c2nn[nH]n2)c1 | broth microdilution | DH5α pET28-lacUV5 control | 200 µM | > 64 µg/mL
CCOc1c(NC(=O)c2ccc(NC(=O)c3ccc(NC(=O)[C@H](Cc4c[nH]nn4)NC(=O)c4ccc(NC(=O)/C(C)=C/c5ccc(O)cc5)cc4)cc3)c(OC)c2O)ccc(C(=O)O)c1O | broth microdilution | BW25113 | – | 0.016 µg/mL
Oc1c(Br)cc(Br)c2nc3c(C(F)(F)F)cc(C(F)(F)F)cc3nc12 | – | – | – | > 100 µM

For quick reference, copied from above:
Structure (SMILES) | assay | system | conditions | MIC
CCCC(=O)Oc1c(C)c(OC)c2c(/C=C/c3ccccc3)c(CC)c(=O)oc2c1C | microbial growth, broth dilution | ATCC25922 | – | 5000 µg/mL
C[C@H](CS)C(=O)Nc1cccc(-c2nn[nH]n2)c1 | broth microdilution | DH5α pET28-lacUV5 control | 200 µM | > 64 µg/mL
COC(C(N)=O)C(NC(=O)c1ccc(NC(=O)c2ccc(C#N)cc2)cc1)C(=O)Nc1ccc(C(=O)Nc2ccc(C(=O)Nc3ccc(C(=O)O)cc3)c(O)c2OC(C)C)cc1 (stereo not shown) | – | BW25113 wild type | – | 0.2 µg/mL
COc1c(NC(=O)c2ccc(NC(=O)c3ccc(NC(=O)[C@H](Cc4c[nH]nn4)NC(=O)c4ccc(NC(=O)/C(C)=C/c5ccc(O)cc5)cc4)cc3)cc2O)ccc(C(=O)O)c1O | broth microdilution | ciprofloxacin-resistant | – | 0.5 µg/mL
Oc1c(Br)cc(Br)c2nc3c(C(F)(F)F)cc(C(F)(F)F)cc3nc12 | – | – | – | > 100 µM
C/C(=C\c1ccc(O)cc1)C(=O)Nc1ccc(C(=O)N[C@@H](Cc2c[nH]nn2)C(=O)Nc2ccc(C(=O)Nc3ccc(C(=O)Nc4ccc(C(=O)O)cc4)cc3)cc2)cc1 | broth microdilution | ciprofloxacin-sensitive | – | 0.063 µg/mL
